Measurements gathered from unrelated publications.
Every numbered part comes from another study and shows a few of its results, in no order.
Sequence of UniProt O60285 (whole entry, looked up): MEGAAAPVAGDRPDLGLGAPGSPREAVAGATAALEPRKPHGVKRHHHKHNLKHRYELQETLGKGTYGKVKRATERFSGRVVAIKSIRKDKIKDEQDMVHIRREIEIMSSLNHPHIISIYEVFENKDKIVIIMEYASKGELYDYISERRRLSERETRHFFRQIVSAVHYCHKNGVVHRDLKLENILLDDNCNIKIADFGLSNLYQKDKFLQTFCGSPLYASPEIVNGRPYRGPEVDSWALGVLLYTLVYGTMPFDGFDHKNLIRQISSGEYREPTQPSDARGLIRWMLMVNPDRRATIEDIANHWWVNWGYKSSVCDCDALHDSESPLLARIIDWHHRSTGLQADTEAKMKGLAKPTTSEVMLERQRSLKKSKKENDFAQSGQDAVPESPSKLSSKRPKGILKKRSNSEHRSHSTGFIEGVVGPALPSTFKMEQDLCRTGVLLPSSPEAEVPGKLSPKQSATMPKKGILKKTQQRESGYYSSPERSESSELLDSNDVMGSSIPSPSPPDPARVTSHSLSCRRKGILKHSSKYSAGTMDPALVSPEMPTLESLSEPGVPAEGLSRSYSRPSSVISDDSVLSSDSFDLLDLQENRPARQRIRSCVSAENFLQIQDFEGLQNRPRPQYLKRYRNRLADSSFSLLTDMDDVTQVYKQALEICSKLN
Sequence of UniProt P09769 (whole entry, looked up): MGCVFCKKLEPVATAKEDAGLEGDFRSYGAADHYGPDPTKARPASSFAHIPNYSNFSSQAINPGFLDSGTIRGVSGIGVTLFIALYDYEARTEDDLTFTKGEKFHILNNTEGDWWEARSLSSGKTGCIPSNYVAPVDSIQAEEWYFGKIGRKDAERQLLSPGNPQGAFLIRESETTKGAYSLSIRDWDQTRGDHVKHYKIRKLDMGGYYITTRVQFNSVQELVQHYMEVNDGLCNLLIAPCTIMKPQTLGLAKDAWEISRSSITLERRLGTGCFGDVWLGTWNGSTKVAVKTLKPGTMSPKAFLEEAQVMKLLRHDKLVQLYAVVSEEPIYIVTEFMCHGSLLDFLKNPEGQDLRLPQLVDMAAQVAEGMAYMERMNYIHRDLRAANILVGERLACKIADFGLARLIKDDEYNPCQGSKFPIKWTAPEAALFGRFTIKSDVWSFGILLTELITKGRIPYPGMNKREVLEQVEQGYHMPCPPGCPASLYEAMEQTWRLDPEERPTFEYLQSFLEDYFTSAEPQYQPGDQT
Sequence of UniProt O75747 (whole entry, looked up): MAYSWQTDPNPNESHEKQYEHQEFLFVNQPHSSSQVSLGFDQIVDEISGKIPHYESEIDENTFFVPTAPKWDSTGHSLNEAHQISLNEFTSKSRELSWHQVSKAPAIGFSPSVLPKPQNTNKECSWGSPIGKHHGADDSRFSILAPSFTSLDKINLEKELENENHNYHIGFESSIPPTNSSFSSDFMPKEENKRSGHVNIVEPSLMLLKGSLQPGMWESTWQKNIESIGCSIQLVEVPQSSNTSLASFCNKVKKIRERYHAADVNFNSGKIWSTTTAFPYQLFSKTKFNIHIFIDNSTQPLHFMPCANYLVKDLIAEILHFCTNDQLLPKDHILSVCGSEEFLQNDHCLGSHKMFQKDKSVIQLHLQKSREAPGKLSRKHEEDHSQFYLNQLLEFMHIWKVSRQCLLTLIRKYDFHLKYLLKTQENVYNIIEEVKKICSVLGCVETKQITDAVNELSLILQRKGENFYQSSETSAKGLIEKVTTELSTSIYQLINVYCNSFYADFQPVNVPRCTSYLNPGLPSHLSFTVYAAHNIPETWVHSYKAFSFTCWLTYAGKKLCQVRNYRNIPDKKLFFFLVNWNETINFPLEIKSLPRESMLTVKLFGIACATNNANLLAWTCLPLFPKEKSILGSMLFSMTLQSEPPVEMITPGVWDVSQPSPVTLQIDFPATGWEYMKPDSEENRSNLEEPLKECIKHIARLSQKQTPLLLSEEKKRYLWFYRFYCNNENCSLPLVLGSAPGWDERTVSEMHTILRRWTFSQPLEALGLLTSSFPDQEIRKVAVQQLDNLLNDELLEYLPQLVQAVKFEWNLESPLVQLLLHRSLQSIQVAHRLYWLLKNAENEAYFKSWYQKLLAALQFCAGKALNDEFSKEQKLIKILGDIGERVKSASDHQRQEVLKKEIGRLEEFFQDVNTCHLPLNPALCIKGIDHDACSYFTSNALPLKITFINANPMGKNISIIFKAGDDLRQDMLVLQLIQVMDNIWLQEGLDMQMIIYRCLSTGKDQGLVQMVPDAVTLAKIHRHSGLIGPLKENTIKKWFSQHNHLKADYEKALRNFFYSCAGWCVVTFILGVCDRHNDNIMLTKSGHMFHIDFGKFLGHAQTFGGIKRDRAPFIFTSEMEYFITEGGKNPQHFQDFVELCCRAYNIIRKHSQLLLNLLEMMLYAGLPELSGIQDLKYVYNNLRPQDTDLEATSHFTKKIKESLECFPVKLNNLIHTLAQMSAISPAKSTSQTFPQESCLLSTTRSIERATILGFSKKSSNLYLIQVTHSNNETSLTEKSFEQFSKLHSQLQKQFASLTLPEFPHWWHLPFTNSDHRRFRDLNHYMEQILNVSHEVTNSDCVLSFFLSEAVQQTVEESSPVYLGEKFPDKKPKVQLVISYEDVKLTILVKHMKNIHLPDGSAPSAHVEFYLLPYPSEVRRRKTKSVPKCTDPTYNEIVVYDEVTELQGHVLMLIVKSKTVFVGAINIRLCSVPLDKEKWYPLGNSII
Sequence of UniProt Q8NI60 (whole entry, looked up): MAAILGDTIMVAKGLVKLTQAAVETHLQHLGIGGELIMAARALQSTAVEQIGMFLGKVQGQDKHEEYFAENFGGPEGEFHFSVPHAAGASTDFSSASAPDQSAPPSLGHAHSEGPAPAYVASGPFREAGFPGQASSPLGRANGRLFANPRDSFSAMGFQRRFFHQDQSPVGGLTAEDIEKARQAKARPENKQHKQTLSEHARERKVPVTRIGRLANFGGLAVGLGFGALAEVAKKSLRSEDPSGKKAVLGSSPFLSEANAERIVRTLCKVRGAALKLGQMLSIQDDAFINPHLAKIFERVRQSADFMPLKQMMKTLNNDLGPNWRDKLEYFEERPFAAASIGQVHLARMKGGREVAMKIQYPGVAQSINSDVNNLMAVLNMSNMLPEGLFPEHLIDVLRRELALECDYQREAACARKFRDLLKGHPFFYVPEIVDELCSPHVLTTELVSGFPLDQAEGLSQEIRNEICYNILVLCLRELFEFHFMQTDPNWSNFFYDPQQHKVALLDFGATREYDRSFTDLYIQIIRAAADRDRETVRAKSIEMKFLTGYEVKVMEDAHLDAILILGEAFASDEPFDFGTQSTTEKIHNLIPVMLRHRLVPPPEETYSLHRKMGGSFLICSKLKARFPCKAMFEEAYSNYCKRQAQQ
Sequence of UniProt Q9P2K8 (whole entry, unmodified, looked up): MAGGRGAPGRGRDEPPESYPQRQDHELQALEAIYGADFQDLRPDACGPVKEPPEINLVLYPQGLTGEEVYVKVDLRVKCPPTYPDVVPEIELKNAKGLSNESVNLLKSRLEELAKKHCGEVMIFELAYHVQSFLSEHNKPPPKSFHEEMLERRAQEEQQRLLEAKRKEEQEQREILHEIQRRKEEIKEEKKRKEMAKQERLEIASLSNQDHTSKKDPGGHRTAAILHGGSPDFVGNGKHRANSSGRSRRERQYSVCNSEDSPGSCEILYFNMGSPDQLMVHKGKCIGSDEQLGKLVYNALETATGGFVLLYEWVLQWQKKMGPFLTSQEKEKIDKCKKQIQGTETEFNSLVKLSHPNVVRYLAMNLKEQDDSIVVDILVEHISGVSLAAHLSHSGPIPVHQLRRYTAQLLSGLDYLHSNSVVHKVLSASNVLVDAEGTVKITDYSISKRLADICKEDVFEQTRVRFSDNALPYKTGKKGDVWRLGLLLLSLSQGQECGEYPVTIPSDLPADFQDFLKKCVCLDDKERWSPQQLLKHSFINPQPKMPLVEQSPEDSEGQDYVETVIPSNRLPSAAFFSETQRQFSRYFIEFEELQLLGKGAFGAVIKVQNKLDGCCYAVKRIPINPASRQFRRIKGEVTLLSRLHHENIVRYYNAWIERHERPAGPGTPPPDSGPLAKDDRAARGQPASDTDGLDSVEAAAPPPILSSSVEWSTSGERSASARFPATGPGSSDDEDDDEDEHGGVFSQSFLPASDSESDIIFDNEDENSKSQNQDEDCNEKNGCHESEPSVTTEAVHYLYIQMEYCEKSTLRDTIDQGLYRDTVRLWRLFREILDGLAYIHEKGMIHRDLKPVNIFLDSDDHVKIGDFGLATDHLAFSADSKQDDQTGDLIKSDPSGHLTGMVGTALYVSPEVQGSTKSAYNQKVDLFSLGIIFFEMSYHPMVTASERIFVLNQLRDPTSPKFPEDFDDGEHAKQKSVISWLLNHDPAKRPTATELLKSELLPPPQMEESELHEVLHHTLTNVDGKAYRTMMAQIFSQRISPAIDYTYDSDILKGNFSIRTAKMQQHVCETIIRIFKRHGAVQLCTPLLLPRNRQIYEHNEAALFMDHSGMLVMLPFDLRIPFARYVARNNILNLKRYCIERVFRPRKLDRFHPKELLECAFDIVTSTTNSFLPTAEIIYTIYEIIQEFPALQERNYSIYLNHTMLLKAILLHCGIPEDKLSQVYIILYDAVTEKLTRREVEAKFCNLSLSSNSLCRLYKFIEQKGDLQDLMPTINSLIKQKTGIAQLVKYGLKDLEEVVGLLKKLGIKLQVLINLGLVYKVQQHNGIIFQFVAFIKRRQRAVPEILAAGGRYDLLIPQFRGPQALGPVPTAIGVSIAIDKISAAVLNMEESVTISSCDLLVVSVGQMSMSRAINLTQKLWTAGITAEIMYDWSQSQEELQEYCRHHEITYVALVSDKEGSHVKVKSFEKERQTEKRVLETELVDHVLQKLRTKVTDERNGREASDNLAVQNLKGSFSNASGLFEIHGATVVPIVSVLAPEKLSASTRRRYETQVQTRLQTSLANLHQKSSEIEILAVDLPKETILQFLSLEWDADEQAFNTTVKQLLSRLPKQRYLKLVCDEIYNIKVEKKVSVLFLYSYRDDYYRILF

Sample 1
Cell line: A-375
Tested at: 100 µM
Time: 18 h
SMILES	viability
CN/C(=N/CCSCc1nc[nH]c1C)NC#N	90.4%
CC1(C)C[C@@H]1C(=O)N/C(=C\CCCCSC[C@H](N)C(=O)O)C(=O)O	107%
CCCN(CCC)C(=O)C(CCC(=O)O)NC(=O)c1ccccc1 (stereo not drawn)	92%
CN(C)[C@@H]1C(O)=C(C(N)=O)C(=O)[C@@]2(O)C(O)=C3C(=O)c4c(O)ccc(Cl)c4[C@@H](O)[C@H]3C[C@@H]12	102%
Cc1ccnc(NS(=O)(=O)c2ccc(N)cc2)n1	101%

Sample 2
SMILES: CNC(=O)Nc1ccc2c(c1)[C@@]1(CC2)OC(=O)N(CC(=O)N(Cc2ccc(F)cc2)[C@@H](C)C(F)(F)F)C1=O
Observed: cell-free assay
Technique: competition with immobilised ligand
Tested at: 1 µM
target	remaining binding [%]
eIF-2-alpha kinase GCN2, C-terminal kinase domain (EIF2AK4, Homo sapiens, UniProt Q9P2K8, S808G)	100
PIK3C2G (Homo sapiens, UniProt O75747)	97
FGR (Homo sapiens, UniProt P09769)	88
COQ8A (Homo sapiens, UniProt Q8NI60)	88
NUAK1 (Homo sapiens, UniProt O60285)	88

Sample 3
Species: human
Sample: microsomes or S9
Tested at: 2 µM
Time: 0.5 h
Structure (SMILES)	remaining compound
CCCC1(CC(=O)N2CCN(C)CC2)CCOC(C)(C)C1 (stereo not drawn)	78.1%
O=C(O)C(c1ccsc1)N1C[C@@H]2Oc3c(F)ccc(F)c3O[C@@H]2C1 (stereo partly drawn)	> 100%
Cn1ccnc1CC1CCN(c2cnccn2)CC1	79.9%
CCc1csc(CC(=O)N2CCCn3nccc32)n1	80.5%

Sample 4
Target: NUAK family SNF1-like kinase 1 (NUAK1, Homo sapiens, UniProt O60285)
Observed: enzyme activity
Mode: inhibitor
Tested at: 0.5 µM
Relative to: control
Structure (SMILES)	remaining activity [%]
Nc1[nH]nc2nc3ccccc3nc12	86.3
O=C1NC(=O)C(c2cn(CCCO)c3ncccc23)=C1c1cnccn1	59.4
O=C(O)c1ccc2c3c1cccc3c(=O)n1c3ccccc3nc21	41.3
CO[C@H]1C[C@@H]2CC[C@@H](C)[C@@](O)(O2)C(=O)C(=O)N2CCCC[C@H]2C(=O)O[C@H]([C@H](C)C[C@@H]2CC[C@@H](O)[C@H](OC)C2)CC(=O)[C@H](C)/C=C(\C)[C@@H](O)[C@@H](OC)C(=O)[C@H](C)C[C@H](C)/C=C/C=C/C=C/1C	101
O=c1c2ccccc2[nH]c(=S)n1CCN1CCC(=C(c2ccc(F)cc2)c2ccc(F)cc2)CC1	102
COc1cc2nccc(Oc3ccc(NC(=S)NC(=O)c4ccccc4C)cc3)c2cc1OC	82.5
O=C1NC(=O)C(c2cn(CCCn3ccnc3)c3ccccc23)=C1Nc1ccccc1	70.6
N#CC(C#N)=C(N)/C(C#N)=C/c1ccc(O)cc1	92.3
Nc1ncnc2n[nH]c(Nc3ccc(F)cc3)c12	95.5
CC(C)[C@H](CO)Nc1nc(Nc2cc(N)cc(Cl)c2)c2ncn(C(C)C)c2n1	61.5
NCCNc1ncc(C(N)=O)c(Nc2cccc(C(F)(F)F)c2)n1	22.6
CN(C)c1ccc(C=C2C(=O)Nc3ccccc32)cc1	80.4
Cc1cccc(-c2[nH]c(C(C)(C)C)nc2-c2ccc3c(c2)OCO3)n1	97.3
Cc1nc(-c2ccccc2)c(-c2ccncc2)o1	100
O=S(=O)(c1cccc2cnccc12)N1CCCNCC1	73.2

Mixed results
Structure (SMILES)	test	test system	conditions	measurement	value
CC(C)n1cnc(-c2ccc(F)cc2)c1-c1ncc(C(=O)Nc2ccc(N3CCN(C)CC3)cc2)[nH]1	phase 2a clinical trial	patients with idiopathic pulmonary fibrosis	30 mg once daily, with: standard of care	patients with ALT increase	0%
